# Assay results from different studies.
# The chains behind the UniProt entries cited, without tags or fusion partners. A line that says so, or that is headed by a name, gives the form on record, which may keep a tag or linker. Residues count along the entry.
# UniProt P37136, 32-574 limits assumed: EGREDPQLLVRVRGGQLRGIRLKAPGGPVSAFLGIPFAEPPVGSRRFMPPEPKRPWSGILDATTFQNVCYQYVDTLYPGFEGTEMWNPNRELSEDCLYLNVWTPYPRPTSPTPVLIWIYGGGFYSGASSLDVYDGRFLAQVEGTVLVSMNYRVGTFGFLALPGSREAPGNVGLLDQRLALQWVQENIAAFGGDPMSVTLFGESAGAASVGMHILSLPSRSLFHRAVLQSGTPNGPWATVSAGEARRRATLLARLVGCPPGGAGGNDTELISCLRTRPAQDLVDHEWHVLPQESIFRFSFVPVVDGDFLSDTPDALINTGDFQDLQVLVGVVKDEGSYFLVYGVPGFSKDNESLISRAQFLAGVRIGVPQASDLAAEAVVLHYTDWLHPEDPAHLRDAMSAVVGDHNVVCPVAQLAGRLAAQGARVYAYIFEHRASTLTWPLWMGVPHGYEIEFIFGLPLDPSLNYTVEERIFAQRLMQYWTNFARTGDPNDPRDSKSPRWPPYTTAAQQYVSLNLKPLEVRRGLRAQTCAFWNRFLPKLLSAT
# UniProt P08510, 1-655 with tags or gaps DEL6-46: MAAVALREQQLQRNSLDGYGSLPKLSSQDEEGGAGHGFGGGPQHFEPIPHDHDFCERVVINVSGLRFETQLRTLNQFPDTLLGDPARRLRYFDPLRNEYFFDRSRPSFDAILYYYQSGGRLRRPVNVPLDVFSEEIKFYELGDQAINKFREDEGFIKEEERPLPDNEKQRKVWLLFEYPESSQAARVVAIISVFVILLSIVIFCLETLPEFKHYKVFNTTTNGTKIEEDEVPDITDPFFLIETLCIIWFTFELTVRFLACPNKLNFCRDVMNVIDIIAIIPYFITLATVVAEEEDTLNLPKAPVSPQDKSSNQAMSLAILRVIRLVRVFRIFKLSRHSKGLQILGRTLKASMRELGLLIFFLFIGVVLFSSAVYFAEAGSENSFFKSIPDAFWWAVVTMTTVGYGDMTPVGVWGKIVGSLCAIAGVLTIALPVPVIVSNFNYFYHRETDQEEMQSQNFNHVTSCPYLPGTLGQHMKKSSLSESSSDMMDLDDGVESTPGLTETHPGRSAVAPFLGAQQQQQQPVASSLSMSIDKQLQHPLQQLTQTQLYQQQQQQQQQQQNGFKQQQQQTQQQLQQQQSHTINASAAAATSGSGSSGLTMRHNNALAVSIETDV
# Each line is one published result; not all experiments were run side by side. Values joined by “and” are separate records of one study, mostly repeats; a detail may differ. Numbers after ± are the reported error.
Compound,target or system,test,test system,conditions,how to read,quantity,value
Cc1ccccc1S(=O)(=O)Nc1cccc(C(=O)NC2CCN(c3ncnc4[nH]cnc34)CC2)c1,SARS-CoV-2,,Wuhan-Hu-1,0.2743 µM,reference: untreated infected cells,relative infection,67.1%
O=S(=O)(c1cccs1)N1CCCC2(C1)Nc1cccnc1N=C2NC1CCCC1 (stereo not shown),HEK293,"cell viability, CellTiter-Glo",,72 h,,CC50,> 70000 nM
Cc1ccc(S(=O)(=O)Nc2cccc(C(=O)NC3CCN(c4ncnc5[nH]cnc45)CC3)c2)cc1Cl,SARS-CoV-2,,Wuhan-Hu-1,22.22 µM,reference: untreated infected cells,relative infection,28%
CC[C@H](C)[C@H](NC(=O)[C@H](C)NC(=O)[C@H](CCC(=O)O)NC(=O)[C@H](CCC(=O)O)NC(=O)[C@H](CC(C)C)NC(=O)[C@H](CCCCN)NC(=O)[C@H](CCCCN)NC(=O)[C@H](CCSC)NC(=O)[C@H](CCC(=O)O)NC(=O)[C@H](Cc1ccc(O)cc1)NC(=O)[C@H](CCC(=O)O)NC(=O)[C@H](CC(C)C)NC(=O)[C@H](CC(=O)O)NC(=O)[C@H](CC(C)C)NC(=O)[C@H](Cc1ccccc1)NC(=O)[C@@H](NC(=O)[C@@H](NC(=O)[C@H](CC(N)=O)NC(=O)[C@@H](NC(=O)[C@H](CCC(N)=O)NC(=O)[C@H](CC(=O)O)NC(=O)[C@H](CC(C)C)NC(=O)[C@@H](N)CO)[C@@H](C)CC)C(C)C)[C@@H](C)O)C(=O)N[C@@H](CCCCN)C(=O)N[C@@H](CCCCN)C(=O)N[C@@H](CC(C)C)C(=O)N[C@@H](CCC(=O)O)C(=O)N[C@@H](CCC(=O)O)C(=O)N[C@@H](CO)C(=O)N[C@@H](Cc1ccc(O)cc1)C(=O)N[C@H](C(=O)N[C@@H](CC(=O)O)C(=O)N[C@@H](CC(C)C)C(=O)N[C@@H](CCCCN)C(=O)N[C@@H](CCC(=O)O)C(=O)N[C@@H](CC(C)C)C(=O)O)[C@@H](C)CC,SARS-CoV-2 Delta pseudovirus,"pseudovirus infection, inhibitor, luciferase",Caco-2,24 h,,IC50,441 nM
CC#Cc1ccc2c(=O)[nH]nc(Cc3ccc(F)c(C(=O)N4CCN(c5ccc(C#N)cn5)CC4)c3)c2c1,CT26,"western blot, item: STAT1 protein",,300 nM,,onset time,16 h
O=C(Nc1cc(F)cc(F)c1)N1CCCC2(C1)Nc1cccnc1N=C2NC1CCCC1 (stereo not shown),HEK293,"cell viability, CellTiter-Glo",,72 h,,CC50,> 70000 nM
CCOP(=O)(OCC)ON1C(=O)c2cccc3cccc(c23)C1=O,"Ache (Rattus norvegicus, UniProt P37136)","enzyme activity, inhibitor, discontinuous Ellman","rat, postnatal day 70, rat heart homogenate","15 min, 37 °C",,IC50,4 nM
O=[N+]([O-])c1cc([As](O)O)ccc1O,MCF-12A,cell viability,,72 h,,IC50,5600 nM
O=C(NC1CCN(c2ncnc3[nH]cnc23)CC1)c1cccc(S(=O)(=O)Nc2ccc(Cl)cc2)c1,SARS-CoV-2,,Wuhan-Hu-1,7.407 µM,reference: untreated infected cells,relative infection,28.1%
CC[C@H](C)[C@H](NC(=O)[C@H](C)NC(=O)[C@H](CCC(=O)O)NC(=O)[C@H](CCC(=O)O)NC(=O)[C@H](CC(C)C)NC(=O)[C@H](CCCCN)NC(=O)[C@H](CCCCN)NC(=O)[C@H](CCSC)NC(=O)[C@H](CCC(=O)O)NC(=O)[C@H](Cc1ccc(O)cc1)NC(=O)[C@H](CCC(=O)O)NC(=O)[C@H](CC(C)C)NC(=O)[C@H](CC(=O)O)NC(=O)[C@H](CC(C)C)NC(=O)[C@H](Cc1ccccc1)NC(=O)[C@@H](NC(=O)[C@@H](NC(=O)[C@H](CC(N)=O)NC(=O)[C@@H](NC(=O)[C@H](CCC(N)=O)NC(=O)[C@H](CC(=O)O)NC(=O)[C@H](CC(C)C)NC(=O)[C@H](CO)NC(=O)[C@H](CC(C)C)NC(=O)[C@H](CC(=O)O)NC(=O)[C@@H]1CCCN1C(=O)[C@H](C)N)[C@@H](C)CC)C(C)C)[C@@H](C)O)C(=O)N[C@@H](CCCCN)C(=O)N[C@@H](CCCCN)C(=O)N[C@@H](CC(C)C)C(=O)N[C@@H](CCC(=O)O)C(=O)N[C@@H](CCC(=O)O)C(=O)N[C@@H](CO)C(=O)N[C@@H](Cc1ccc(O)cc1)C(=O)N[C@H](C(=O)N[C@@H](CC(=O)O)C(=O)N[C@@H](CC(C)C)C(=O)N[C@@H](CCCCN)C(=O)N[C@@H](CCC(=O)O)C(=O)N[C@@H](CC(C)C)C(=O)O)[C@@H](C)CC,SARS-CoV-2 Delta pseudovirus,"pseudovirus infection, inhibitor, luciferase",Caco-2,24 h,,IC50,345 nM
O=C(NC1CCN(c2ncnc3[nH]cnc23)CC1)c1cccc(NS(=O)(=O)c2ccc([N+](=O)[O-])cc2)c1,SARS-CoV-2,,Wuhan-Hu-1,0.03048 µM,reference: untreated infected cells,relative infection,81.4%
CC[C@H](C)[C@@H]1NC(=O)[C@H](CCCNC(=N)N)NC(=O)[C@@H](N)CSSC[C@@H]2NC(=O)[C@@H]3CSSC[C@@H](C(=O)N[C@H](C(=O)O)C(C)C)NC(=O)[C@H](CCCCN)NC(=O)[C@H](CC(N)=O)NC(=O)[C@H](Cc4ccccc4)NC(=O)[C@H](CCCNC(=N)N)NC(=O)[C@H](CC(N)=O)NC(=O)[C@H](CSSC[C@H](NC(=O)[C@H](CCCCN)NC(=O)[C@H](CCC(N)=O)NC(=O)[C@H](CC(N)=O)NC(=O)[C@@H]4C[C@@H](O)CN4C1=O)C(=O)N[C@@H](Cc1ccccc1)C(=O)N[C@@H](CCC(N)=O)C(=O)N[C@@H](Cc1c[nH]cn1)C(=O)N[C@@H](CC(C)C)C(=O)N[C@@H](CC(=O)O)C(=O)N[C@@H](CC(=O)O)C(=O)N3)NC(=O)[C@H](CCCCN)NC(=O)[C@H](CCCNC(=N)N)NC(=O)[C@H](CO)NC2=O,"Sh (Drosophila melanogaster, UniProt P08510, del6-46)","potassium current, outside-out patch clamp",,"chronic application, zero voltage, internal K 15, with: 1 mM TEA",,Kd,313 ± 37 nM
Cc1ccc(S(=O)(=O)Nc2cccc(C(=O)NC3CCN(c4ncnc5[nH]cnc45)CC3)c2)cc1,monkeypox virus E1/E12,,,12.5 µM,,inhibition,2.55% and 9.87%
CC[C@H](C)[C@H](NC(=O)[C@H](C)NC(=O)[C@H](CCC(=O)O)NC(=O)[C@H](CCC(=O)O)NC(=O)[C@H](CC(C)C)NC(=O)[C@H](CCCCN)NC(=O)[C@H](CCCCN)NC(=O)[C@H](CCSC)NC(=O)[C@H](CCC(=O)O)NC(=O)[C@H](Cc1ccc(O)cc1)NC(=O)[C@H](CCC(=O)O)NC(=O)[C@H](CC(C)C)NC(=O)[C@H](CC(=O)O)NC(=O)[C@H](CC(C)C)NC(=O)[C@H](Cc1ccccc1)NC(=O)[C@@H](NC(=O)[C@@H](NC(=O)[C@H](CC(N)=O)NC(=O)[C@@H](NC(=O)[C@H](CCC(N)=O)NC(=O)[C@H](CC(=O)O)NC(=O)[C@H](CC(C)C)NC(=O)[C@@H](N)CO)[C@@H](C)CC)C(C)C)[C@@H](C)O)C(=O)N[C@@H](CCCCN)C(=O)N[C@@H](CCCCN)C(=O)N[C@@H](CC(C)C)C(=O)N[C@@H](CCC(=O)O)C(=O)N[C@@H](CCC(=O)O)C(=O)N[C@H](C(=O)N[C@@H](Cc1ccc(O)cc1)C(=O)N[C@H](C(=O)N[C@@H](CC(=O)O)C(=O)N[C@@H](CC(C)C)C(=O)N[C@@H](CCCCN)C(=O)N[C@@H](CCC(=O)O)C(=O)N[C@@H](CC(C)C)C(=O)O)[C@@H](C)CC)[C@@H](C)O,SARS-CoV-2 Gamma pseudovirus,"pseudovirus infection, inhibitor, luciferase",Caco-2,24 h,,IC50,1530 nM
O=C1Cc2ccccc2N1C1CCN([C@@H]2CC[C@H]3CCCc4cccc2c43)CC1,nociceptin receptor (human),BRET,,,"reference: N/OFQ as unbiased standard, G protein over β-arrestin 2",bias factor,0.46
CC[C@H](C)[C@H](NC(=O)[C@H](C)NC(=O)[C@H](CCC(=O)O)NC(=O)[C@H](CCC(=O)O)NC(=O)[C@H](CC(C)C)NC(=O)[C@H](CCCCN)NC(=O)[C@H](CCCCN)NC(=O)[C@H](CCSC)NC(=O)[C@H](CCC(=O)O)NC(=O)[C@H](Cc1ccc(O)cc1)NC(=O)[C@H](CCC(=O)O)NC(=O)[C@H](CC(C)C)NC(=O)[C@H](CC(=O)O)NC(=O)[C@H](CC(C)C)NC(=O)[C@H](Cc1ccccc1)NC(=O)[C@H](Cc1ccc(O)cc1)NC(=O)[C@@H](NC(=O)[C@H](CC(N)=O)NC(=O)[C@@H](NC(=O)[C@H](CCC(N)=O)NC(=O)[C@H](CC(=O)O)NC(=O)[C@H](CC(C)C)NC(=O)[C@@H](N)CO)[C@@H](C)CC)C(C)C)C(=O)N[C@@H](CCCCN)C(=O)N[C@@H](CCCCN)C(=O)N[C@@H](CC(C)C)C(=O)N[C@@H](CCC(=O)O)C(=O)N[C@@H](CCC(=O)O)C(=O)N[C@@H](CO)C(=O)N[C@@H](Cc1ccc(O)cc1)C(=O)N[C@H](C(=O)N[C@@H](CC(=O)O)C(=O)N[C@@H](CC(C)C)C(=O)N[C@@H](CCCCN)C(=O)N[C@@H](CCC(=O)O)C(=O)N[C@@H](CC(C)C)C(=O)O)[C@@H](C)CC,SARS-CoV-2 Beta pseudovirus,"pseudovirus infection, inhibitor, luciferase",Caco-2,24 h,,IC50,455 nM
Cc1cc(C(=O)N[C@@H](Cc2cccc3ccccc23)C(=O)N[C@@H](CC(C)C)C(=O)N[C@H](C=O)C[C@@H]2CCCNC2=O)no1,Norovirus,"viral replication, RT-qPCR",HG23 replicon cells,four days,,EC90,70 ± 20 nM
CC[C@H](C)[C@H](NC(=O)[C@H](C)NC(=O)[C@H](CCC(=O)O)NC(=O)[C@H](CCC(=O)O)NC(=O)[C@H](CC(C)C)NC(=O)[C@H](CCCCN)NC(=O)[C@H](CCCCN)NC(=O)[C@H](CCSC)NC(=O)[C@H](CCC(=O)O)NC(=O)[C@H](Cc1ccc(O)cc1)NC(=O)[C@H](CCC(=O)O)NC(=O)[C@H](CC(C)C)NC(=O)[C@H](CC(=O)O)NC(=O)[C@H](CC(C)C)NC(=O)[C@H](Cc1ccccc1)NC(=O)[C@H](Cc1ccccc1)NC(=O)[C@@H](NC(=O)[C@H](CC(N)=O)NC(=O)[C@@H](NC(=O)[C@H](CCC(N)=O)NC(=O)[C@H](CC(=O)O)NC(=O)[C@H](CC(C)C)NC(=O)[C@@H](N)CO)[C@@H](C)CC)C(C)C)C(=O)N[C@@H](CCCCN)C(=O)N[C@@H](CCCCN)C(=O)N[C@@H](CC(C)C)C(=O)N[C@@H](CCC(=O)O)C(=O)N[C@@H](CCC(=O)O)C(=O)N[C@H](C(=O)N[C@@H](Cc1ccc(O)cc1)C(=O)N[C@H](C(=O)N[C@@H](CC(=O)O)C(=O)N[C@@H](CC(C)C)C(=O)N[C@@H](CCCCN)C(=O)N[C@@H](CCC(=O)O)C(=O)N[C@@H](CC(C)C)C(=O)O)[C@@H](C)CC)[C@@H](C)O,SARS-CoV-2 Delta pseudovirus,"pseudovirus infection, inhibitor, luciferase",Caco-2,"24 h, dual mutations",,IC50,1120 nM
CC(C)[C@H]1CC[C@@H](N2CCC3(CC2)C(=O)NCN3c2ccccc2)CC1,nociceptin receptor (human),BRET,,,"reference: N/OFQ as unbiased standard, G protein over β-arrestin 2",bias factor,0.93

# For quick reference, copied from above:
Compound,target or system,test,test system,conditions,how to read,quantity,value
CC(C)[C@H]1CC[C@@H](N2CCC3(CC2)C(=O)NCN3c2ccccc2)CC1,nociceptin receptor (human),BRET,,,"reference: N/OFQ as unbiased standard, G protein over β-arrestin 2",bias factor,0.93
